Assay results gathered from unrelated publications.
Numbered parts are unrelated; each lists some results of a single study.

Study 1
Target: RNA binding protein fox-1 homolog 2, RRM domain, GST-SBP tag (RBFOX2, Homo sapiens, UniProt O43251-10, residues 100-194)
Technique: RNA Bind-n-Seq
Molecule type: RNA
Sample: in vitro
Concentration: 365 nM
Setting: natural RNA segment, single round, ends assumed
Reference: no-protein control
Direction: higher = stronger binding
All sequences stand within: GGGAGUUCUACAGUCCGACGAUC … UGGAAUUCUCGGGUGCCAA
Oligonucleotide	RBNS enrichment (R)
UGGAAAUGCAAUAUCUUGGGGAGACGUCAACUUCUGAAGUGACUUUGAAGGCAGGGCAGCUACCCAGGCAAAUGGCGUGGAAGGAAGAGCUGAGAGUGGGCCUGGGAAAG	0.868
UGCCUCCCUUCCUCCGCUCCCCUUUCCCAUCACCCCUUCCCCAUUUCCUCUUCCUUCUCUACUCAUGCCAGAUUUUGGGAUUACAAAUAGAAGCUUCUUGCUCCUGUUUA	0.964
UUCUAUCUCCUGGAGGUCCCAAGAUGAUUCAUAAAUACUGCCUGGUGCACAGUGCCCAAACAGCAAUAGAAAGGCUUACUUAUAACCAAACUCCAAGUGAUAGUGAGACC	0.457
GCUGACUGUGUGACUGCCCUGCUCCCUCUGUUCAUCUUAGCCCCAGCCCUCGUCCUCUUUCUGUGAUCCGAUUGAGGAUUUUUUCCUCCUUCAAGUUAAUUUAAACAACU	0.435
UGGGAGCUCUGCUCAUGACCGCUCACAGGGUACCGAGUCUUUGCCUUUUGUGUGUGCGCAUGCUGCCCUCUUAACUGCUUUUAGUAUUCAGAAAGGUUCCAUUUAUGUUU	3.92
GGCCCGGUGGCAAGCGCUGAAAAACCGACCGCCUGUAGGCUCCUGGAACUAUACAGAUAGGUAAAGAGUUCCAAGUUCGUCCAGCCCAUGUGCAAAGUCAACAGUAUUUG	0.689
AAUAUGAAUUCAAAAUUCCACUCUUAUCUGAUAGUUUGAGUCAUGGUCUUAGAUACCAGCUACCUACGAGAGAGAGAGAAAUUGGUUUGUAAUAUCAGUGUAAGUAAAAU	0.55
ACAGCCAAGGAAGAUUUGAUGCAUUCAGAUUCUCGUGUAACACUUGUUGCUUGGCAACAGUACUGGUUGGGUUGACCAGUAAGUAGAAAAAGGCUAAAGGCUAUGCGAUA	0.515
ACGUGUAUAGUAUCUGUAUAUAAGUUGCUGUGUGUCUGUCCUGAUUUCUACAACUGGAGUUUUUUUAUACAAUGUUCUUUGUCUCAAAAUAAAGCAAUGUGUUUUUUCGG	0.411
GGUUUUUAACCCAAACUCAGUGCAUUUUUUAAAAUAGUUAAGAAUCCAAGUCGAGAACACUUGAACACACAGAAGGGAGACCCCGCCUAGCAUAGAUUUGCAGUUACGGC	68.3
UUCCUGAUAUCUGAUGAGAGGUUCAUUCUUGUGUAUUCAGUUAAUGACACCAAAAGGCUCAGCCCACCCCAACCCUAUCUCAUGUUCAGUCUGUCUAAUACAUGCCAGAG	0.405
AACUUUGGUCAGGUGUGUUUAUGGUGACAUGAUUUCUGUGGUUCCUGCCUUACAGCAGGCAGGUUGUAUGGUGAGAAGAAUGAAGGCUGUUGUAGUUACAGGUGCUCUUA	1.36

Study 2
Target: RING finger protein unkempt homolog, zinc fingers 1-6, GST-SBP tag (UNK, Homo sapiens, UniProt Q9C0B0, residues 30-357)
Technique: RNA Bind-n-Seq
Molecule type: RNA
Sample: in vitro
Concentration: not given
Setting: RNA with constant flanks, human and mouse sites, ends assumed
Reference: input RNA pool
Direction: higher = stronger binding
All sequences stand within: GGGAGUUCUACAGUCCGACGAUC … CAACAGAGGAUUGAGCAUCA
Target sequence (chain): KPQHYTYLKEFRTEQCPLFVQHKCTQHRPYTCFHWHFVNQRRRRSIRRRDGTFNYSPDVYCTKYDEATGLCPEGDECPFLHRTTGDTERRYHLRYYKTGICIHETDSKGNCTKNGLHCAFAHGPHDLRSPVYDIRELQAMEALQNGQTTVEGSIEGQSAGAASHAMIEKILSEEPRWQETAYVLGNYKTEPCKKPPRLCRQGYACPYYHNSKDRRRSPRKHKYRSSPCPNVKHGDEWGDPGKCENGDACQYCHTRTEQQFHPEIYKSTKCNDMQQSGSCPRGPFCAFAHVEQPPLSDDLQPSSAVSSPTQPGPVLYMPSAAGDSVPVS
Oligonucleotide	bound/input enrichment
GAUGAUGAAAGUGAAGAGGAUGAAGAUGAUUUGUUGCAAAGGACUGGGAAUUUCAUCUCCACAUCCACGUCUCUUCCAAGAGGAAUCUUGAAGAUGAAGAACUGCCGGCCUGCCAAUGCU	0.388 ratio
AUUGAAGCCAUGCUUGAGGCCCCUUACAAGAAGGAUGAGAACAAGUUGAACAGUGCUAACGGCCAUGAAGAACGUAGCAAAAAGAGAAAAAAAAGCAAGAGCAGAAGUCGUAGUCAUGAG	0.578 ratio
AUUGUCCCCUGGUGAGGGGAGCAGGGGAGAGAAAAUGGUAGCCAUUUUUACAUUGUUUUGUAUAGUAUUUAUUGAUUCAGGAAACAAACACAAAAUUCUGAAUAAAAUUACUUGGAAACU	0.948 ratio
ACAGAAAAUAGCAGUGCAGUGCUACUCCAGUGGCAUGAAAAGGCCUUAGCUGUAGGAGGACUAGGCUCCAUUAUAAGAGUUCUUACAGCAAGAAAGACUGUUUAAAAAAAAAUCCUGUUA	0.0876 ratio
CAGAAUGGAGCUAUGGACGUUAAUUUGACCGUCUACUCCAAUCCCCGCCAAGAGACUGGCAUAGCUGGACAUCCAACAUACCAAUUUUCUGCUAAUACAGGUCCUGCACAUUACAUGACU	0.253 ratio
GUGCGAGUUGAGUGGAUCGCGGCCGUCACCUUUGCUGCUGGCACAGCCGCUCUCGGUUACCUGGCUUACAAGAAGUUCUACGCUAAAGAGAAUCGCACCAAAGCUAUGGUGAAUCUUCAG	0.067 ratio
UGGGAUAAAAGCAAAGCAGAAUCAGCUGUGACCAAACAAGACCAGAUUUCUGCCUCUGAGCUCAGGCAAGCUAAUGGACCAUUGUCAAAUGGUUUGGAAAACCCUGCUACUACUCCUCUA	0.0509 ratio
UUGCAAAAAUGUGGAUCAUGUAGGUUAGAAGUGAAUUGUUUAGUGAAGUUUUUGUACUUUUGUGAUUUUCUUGUUUAUGUCUGUUUUUUUUUUUUUUUUUUAACAUUUGUGUGUAAUAUA	80.9 ratio
GUGGAAGGAAUCAUAGAGGAAGAAGAAGAAGAUGAGGAAGGAAGUGAGUCUAUAAGCAAGAGGAAAAAGGAAGAUGACAUGGAGACCAAGAAAGACCAUCCAUACACCUGGAGAAUUGAA	0.816 ratio
CGUGGCUUCGAUUGGGCGGGGGGCGUCCGGAGUUGGCUGGGACGGCCGCCUGCAGCAUGUUUGUACACCAAGUGCAUGCAGUGCCCGAAGAGGUCAGAAGAGGGCAUCAGAUCCCCUAGG	0.219 ratio
UUUCUAGUUUGAGCUUUCUUUUUGGCCGUCUUUAAAAAAAUUUUUUUUUUUAAUCUAUAAAAUAGACAAGAGCUAGUUCUACAAUGUCCAAGUCAUUCCAGCAGUCAUCUCUCAGUAGGG	0.707 ratio

Study 3
Molecule: GAPLKKLFTSTGL
Observed: peptide binding
Molecule type: peptide
Concentration: concentration not given
Direction: direction not given
target or system	assay	system	conditions	how to read	binding score
human cyclin A2	competitive growth sequencing	Saccharomyces cerevisiae, cyclin A2-Cln2 fusion strain	combined libraries	reference: unfused Cln2 strain	1.71
Saccharomyces cerevisiae	yeast competitive growth sequencing	cyclin-Cln2 fusion strain	library 1	–	0.525
Saccharomyces cerevisiae	yeast competitive growth sequencing	cyclin E2-Cln2 fusion	combined libraries	–	1.16
Saccharomyces cerevisiae	yeast competitive growth sequencing	cyclin F-Cln2 fusion	combined libraries, Cln2-subtracted	–	2.17
Saccharomyces cerevisiae	yeast competitive growth sequencing	cyclin F-Cln2 fusion	library 1, Cln2-subtracted	–	1
human cyclin A2	competitive growth sequencing	Saccharomyces cerevisiae, cyclin A2-Cln2 fusion strain	mutational scanning library 1	reference: unfused Cln2 strain	0.661

Study 4
Target: Ras GTPase-activating protein-binding protein 1, full length (G3BP1, Homo sapiens, UniProt Q13283)
Chain of UniProt Q13283 (whole entry, looked up): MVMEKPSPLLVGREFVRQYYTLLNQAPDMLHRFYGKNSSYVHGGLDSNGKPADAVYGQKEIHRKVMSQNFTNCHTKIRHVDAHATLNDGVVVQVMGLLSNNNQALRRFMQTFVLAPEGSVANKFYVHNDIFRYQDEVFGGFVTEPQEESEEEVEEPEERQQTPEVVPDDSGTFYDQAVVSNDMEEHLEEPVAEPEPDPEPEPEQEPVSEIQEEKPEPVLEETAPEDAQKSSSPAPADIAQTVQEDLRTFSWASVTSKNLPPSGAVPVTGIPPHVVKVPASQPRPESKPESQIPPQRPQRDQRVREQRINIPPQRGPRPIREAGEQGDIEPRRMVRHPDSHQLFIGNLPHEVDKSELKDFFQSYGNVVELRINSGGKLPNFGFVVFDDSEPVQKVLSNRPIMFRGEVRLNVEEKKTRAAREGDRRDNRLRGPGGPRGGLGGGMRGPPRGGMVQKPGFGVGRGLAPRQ
Technique: RNA Bind-n-Seq
Molecule type: RNA
Sample: in vitro
Concentration: 200 nM
Setting: whole 134-nt RNA, ends assumed
Added: 150 mM LiCl
Reference: input library
Direction: higher = stronger binding
Library: 7-deaza-guanosine replaces G
All sequences stand within: GGGAGUUCUACAGUCCGACGAUC … UGGAAUUCUCGGGUGUCAAGG
Oligonucleotide	log2 enrichment
UCAAGUCCUGUGCUACACAUCGUAUGUACCGAAUCGGUUGGGUUGGGGUUGGGGAAAGUAUUAUGUUACGCCGUUCGGAUCUGCACUUCC	-0.38
UAACUUUAGAGGAGGAUCUGAUGGAUAUGGCAGUGGACGUGGAUUUGGGGAUGGCUAUAAUGGGUAUGGAGGAUGACCUGGAGGUGGCAA	-0.197
AGUCCUGUGCUACACAUCGUAUGUACCGAAUCGGGGAGGGGAAAAAGGGGAAAGGGGAAAGUAUUAUGUUACGCCGUUCGGAUCUGCACU	0.302
UGCUUCAGACCAAGCGGAGCUCCCGGAGGCAAAGCCUGGAGCUGCAGAAGUGUGAAGAGAUCCUCCACAAGAUCGUGAAGUACCGCUUCA	-3.38
GUCCUGUGCUACACAUCGUAUGUACCGAAUCAAAUUUUUAAACCCCCCCAAAUUUAAAAAAGUAUUAUGUUACGCCGUUCGGAUCUGCAC	0.391
CCUCAAGUCCUGUGCUACACAUCGUAUGUACCGAAUCGGGGCCGGCCGGCCGGAAAGUAUUAUGUUACGCCGUUCGGAUCUGCACUUCCA	0.49
CCUCAAGUCCUGUGCUACACAUCGUAUGUACCGAAUCGGAAAAAGGUGGAGGAAAGUAUUAUGUUACGCCGUUCGGAUCUGCACUUCCAG	0.0875
ACCAUGCAGGUGGGCAUCUUUGGGAAGUGGGGCAAGGGGGGGAUAGGGAGGGGGGUAACACUUUGGUAACAGGUGGUCCCAGGUCGUUUC	-0.0625
UGGAAUAAGCCUGGUGCUUUCUGGCUAUGUUUGUCAUAGGCUGACCUGGAUAUCACCGAAAUAAACAAACUAACAGCAGAAGCUAUUCAG	-1.68
AAGUCCUGUGCUACACAUCGUAUGUACCGAAUCGGGGAGGGGUUUGGGGUUUGGGGAAAGUAUUAUGUUACGCCGUUCGGAUCUGCACUU	-0.248
CACAGACAACACGCACCCACACAAACACAGAGGGAAGGGGUUGGGAUGGGGACAGGGUGCACAGCAGGGCGGGGUAGGACCCCAGCCCCU	-0.331

Excerpt of the above (study 1):
Oligonucleotide	RBNS enrichment (R)
GCUGACUGUGUGACUGCCCUGCUCCCUCUGUUCAUCUUAGCCCCAGCCCUCGUCCUCUUUCUGUGAUCCGAUUGAGGAUUUUUUCCUCCUUCAAGUUAAUUUAAACAACU	0.435
UGGGAGCUCUGCUCAUGACCGCUCACAGGGUACCGAGUCUUUGCCUUUUGUGUGUGCGCAUGCUGCCCUCUUAACUGCUUUUAGUAUUCAGAAAGGUUCCAUUUAUGUUU	3.92
GGCCCGGUGGCAAGCGCUGAAAAACCGACCGCCUGUAGGCUCCUGGAACUAUACAGAUAGGUAAAGAGUUCCAAGUUCGUCCAGCCCAUGUGCAAAGUCAACAGUAUUUG	0.689
AAUAUGAAUUCAAAAUUCCACUCUUAUCUGAUAGUUUGAGUCAUGGUCUUAGAUACCAGCUACCUACGAGAGAGAGAGAAAUUGGUUUGUAAUAUCAGUGUAAGUAAAAU	0.55
ACAGCCAAGGAAGAUUUGAUGCAUUCAGAUUCUCGUGUAACACUUGUUGCUUGGCAACAGUACUGGUUGGGUUGACCAGUAAGUAGAAAAAGGCUAAAGGCUAUGCGAUA	0.515
